Assay results collected from several papers.
Parts stem from different laboratories: compare values within a part only.

Study 1
Target: Histone acetyltransferase KAT6A, winged helix 2, GST fusion (KAT6A, Homo sapiens, UniProt Q92794, residues 85-181)
Method: protein binding microarray
Molecule type: double-stranded DNA, one strand shown
Matrix: in vitro
Concentration: not given
Notes: 8-mer, flanks averaged, mean of 2 arrays, mostly near background
Reference: not given
Reading: higher = stronger binding
Construct (chain): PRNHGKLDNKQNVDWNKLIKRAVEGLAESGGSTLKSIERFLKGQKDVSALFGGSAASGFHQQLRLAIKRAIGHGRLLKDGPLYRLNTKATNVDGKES
Sequence	E-score
ACGGGCAC	0.163
CCAGCCTA	0.00503
AGCCTATA	-0.0787
GTACTTGA	-0.109
CTTGCCTC	0.00732
AGGAACAT	-0.0764
CACAGGGG	0.011
CAGGACGC	0.0828
CAGGGAAC	-0.000885
AACCAGTA	-0.128
ATCACTTG	-0.214

Study 2
Target: Sal-like protein 4, full length isoform A (SALL4, Homo sapiens, UniProt Q9UJQ4, residues 1-1053)
Sequence of UniProt Q9UJQ4 (whole entry, looked up): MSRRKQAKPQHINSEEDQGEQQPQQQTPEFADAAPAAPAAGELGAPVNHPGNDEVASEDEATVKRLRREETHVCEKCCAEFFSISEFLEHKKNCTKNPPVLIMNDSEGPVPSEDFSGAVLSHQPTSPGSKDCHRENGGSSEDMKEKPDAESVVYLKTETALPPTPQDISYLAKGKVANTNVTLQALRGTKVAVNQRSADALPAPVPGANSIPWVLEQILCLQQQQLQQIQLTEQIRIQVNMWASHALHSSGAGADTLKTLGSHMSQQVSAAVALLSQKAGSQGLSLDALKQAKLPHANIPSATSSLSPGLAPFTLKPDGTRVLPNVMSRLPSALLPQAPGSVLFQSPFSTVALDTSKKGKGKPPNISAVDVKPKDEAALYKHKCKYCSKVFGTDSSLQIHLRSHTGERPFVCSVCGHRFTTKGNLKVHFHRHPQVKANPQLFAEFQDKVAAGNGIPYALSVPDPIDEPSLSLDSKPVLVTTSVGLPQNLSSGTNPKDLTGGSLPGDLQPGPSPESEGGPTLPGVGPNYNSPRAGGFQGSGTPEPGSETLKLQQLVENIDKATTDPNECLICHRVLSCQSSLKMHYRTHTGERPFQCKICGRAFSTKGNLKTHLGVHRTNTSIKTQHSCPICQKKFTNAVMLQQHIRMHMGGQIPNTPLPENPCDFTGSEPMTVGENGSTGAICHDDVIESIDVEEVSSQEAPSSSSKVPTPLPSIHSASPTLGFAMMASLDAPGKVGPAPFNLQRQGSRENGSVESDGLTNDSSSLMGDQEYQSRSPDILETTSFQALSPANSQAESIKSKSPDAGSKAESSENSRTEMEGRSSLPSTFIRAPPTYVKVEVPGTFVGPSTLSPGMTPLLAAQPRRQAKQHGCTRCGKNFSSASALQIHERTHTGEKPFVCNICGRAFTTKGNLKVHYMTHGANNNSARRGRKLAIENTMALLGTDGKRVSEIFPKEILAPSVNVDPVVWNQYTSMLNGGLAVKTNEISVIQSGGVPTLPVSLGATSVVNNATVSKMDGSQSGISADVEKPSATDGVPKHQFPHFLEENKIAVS
Method: universal PBM
Molecule type: double-stranded DNA, one strand shown
Matrix: in vitro
Concentration: 600 nM
Notes: 8-mer, flanks averaged, mean of replicates
Reading: higher = stronger binding
Sequence	E-score
ATTTTCTG	0.174
GCTTTCGA	-0.152
GTGAGAAC	-0.0976
GATCAAGA	0.0738
GAGGCTCA	-0.243
CAGCCGAC	-0.283
ATTCTCCC	-0.081
AAGGTAAT	0.165
ATCGAGCG	-0.171
GGAGAGCA	-0.0802
CTAGGGCA	-0.22
ATAAGACC	0.148
TAGTCTAA	0.0641

Study 3
Target: Interferon regulatory factor 7, full length, phosphomimetic (IRF7, Homo sapiens, UniProt Q92985, residues 1-503, S101K/S471D/S472D/S475D/S476D/S477D/S483D/S484D/S487D)
Method: protein-binding microarray
Molecule type: double-stranded DNA, one strand shown
Matrix: in vitro
Concentration: 250 nM
Notes: 60-bp whole probe
Together with: salmon DNA 0.4 mg/ml
Reference: random background probes
Reading: higher = stronger binding
Shared flanks, not repeated: GCCTAGCAC … GTCTTGATTCGCTTGACGCTGCTG
Target sequence (chain): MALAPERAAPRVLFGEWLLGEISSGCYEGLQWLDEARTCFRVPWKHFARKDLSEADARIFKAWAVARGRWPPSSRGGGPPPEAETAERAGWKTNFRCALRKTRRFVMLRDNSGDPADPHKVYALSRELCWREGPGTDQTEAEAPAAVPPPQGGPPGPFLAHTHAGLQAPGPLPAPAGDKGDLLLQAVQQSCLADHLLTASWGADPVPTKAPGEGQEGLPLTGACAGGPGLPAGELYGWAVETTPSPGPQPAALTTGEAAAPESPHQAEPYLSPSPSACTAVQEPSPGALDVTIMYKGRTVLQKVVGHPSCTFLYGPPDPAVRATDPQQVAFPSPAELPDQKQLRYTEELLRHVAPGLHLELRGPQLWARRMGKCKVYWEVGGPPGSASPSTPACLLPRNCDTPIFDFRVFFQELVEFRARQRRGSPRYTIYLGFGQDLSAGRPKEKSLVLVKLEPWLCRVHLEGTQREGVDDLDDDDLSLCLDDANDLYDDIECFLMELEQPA
Sequence	log fluorescence [z-score]
TTAGGACTGGGACGGGGTTAGTGCTAG	0.132
GACGAACTGGGGTATCGAGCCGTGCTA	-0.775
AGCAAGCCCCTTCCTTTCGGGTGCTAG	-0.744
TTAGATTCCAGTTTCGATTTGTGCTAG	13.4
GACGGACTGCACACTGGGGACGTGCTA	-0.775
GCCGGACTGGGTTTCGGGACGTGCTAG	1.69

Single results of other studies
Substance	target	test	system	setting	scale	endpoint	value
PhoQ, residues 284 288 289 292 302 303 TASMAF	PhoP, residues 12 14 15 18 19 TPLRH (Escherichia coli, UniProt P23836)	Sort-seq, measured: YFP reporter	E. coli	PhoQ-PhoP variant library, together with: 10 µM Mg2+	reference: high Mg2+ state, higher = stronger signaling	fold induction	2.28
